Experimental data of several laboratories.
Compare with care: the assays were run in different laboratories. ± gives the spread as reported.

| SMILES | cell line | assay | setting | scale | IC50 |
| --- | --- | --- | --- | --- | --- |
| COc1ccc(CC[C@H]2OC(=O)[C@@H]3CCCCN3C(=O)C(=O)C(C)(C)COC(=O)C=CCCN(C)C(=O)[C@H](CC(C)C)N(C)C(=O)[C@H]3CCCN3C(=O)[C@@H](Cc3ccccc3)N(C)C(=O)[C@@H](Cc3ccccc3)NC(=O)CCC(=O)Nc3cccc2c3)cc1OC | HUVEC | thymidine uptake, inhibitor |  |  | 3400 ± 800 nM |
| Cc1ccnc(-c2cc(C)ccn2)c1 | L02 | cell growth or viability, MTT | 48 h |  | > 50000 nM |
| O=C1C(Cl)=C(Cl)C(=O)c2c(O)ccc(O)c21 | MOLT-3 | cell growth or viability, XTT |  |  | 270 nM |
| CCC[C@@H]1NC(=O)[C@@H](Cc2ccccc2)N(C)C(=O)[C@@H]2CCCN2C(=O)[C@H](CC(C)C)N(C)C(=O)CCC(=O)Nc2cccc(c2)[C@@H](CCc2ccc(OC)c(OC)c2)OC(=O)[C@@H]2CCCCN2C(=O)C(=O)C(C)(C)COC(=O)C=CCCN(C)C1=O | HUVEC | thymidine uptake, inhibitor |  |  | 1100 ± 200 nM |
| Cc1ccc(-c2c(C#N)c(N)nc3c2Cc2cc(O)ccc2-3)o1 | MOLT-4 | cell viability, CellTiter-Glo |  | no inhibition at 100 µM | > 100000 nM |
| CC(C)c1cccc(C(C)C)c1N1C(=O)C2=Nc3ccccc3CN2C1=S | CCRF-CEM | resazurin | 72 h |  | 25100 ± 6490 nM |
| Cc1cnc2nc1Nc1cccc(c1)COC/C=C/COCc1cc(ccc1OCCN1CCCCC1)N2 | HEL 92.1.7 JAK2 V617F | cell growth, CCK-8 |  |  | 1450 nM |
| CC(C)C[C@H](NC(=O)CN)C(=O)N[C@H]1CCC[C@@H]1C(=O)N[C@@H](CCCCN)C(=O)N[C@@H](CC(C)C)C(=O)N[C@@H](C)CC(=O)N[C@@H](CCCCN)C(=O)N[C@@H](CCCCN)C(=O)N[C@H]1CCC[C@@H]1C(=O)N[C@@H](CC(C)C)C(=O)N[C@@H](CCCCN)C(=O)N[C@@H](CO)CC(=O)N[C@@H](Cc1ccccc1)C(N)=O | HUVEC | cytotoxicity |  |  | 306 µg/mL |
| COc1ccc(CC[C@H]2OC(=O)[C@@H]3CCCCN3C(=O)C(=O)C(C)(C)COC(=O)C=CCCN(C)C(=O)[C@H](CC(C)C)N(C)C(=O)[C@H]3CCCN3C(=O)[C@H](C)N(C)C(=O)[C@H](Cc3ccccc3)NC(=O)CCC(=O)Nc3cccc2c3)cc1OC | HUVEC | thymidine uptake, inhibitor |  |  | > 20000 nM |
| CN1CCC(N[C@@H]2CCc3[nH]c4c(C(N)=O)ccc(-c5ccccc5Cl)c4c3C2)CC1 | HGC-27 | cell growth or viability |  |  | 2.18 nM |
| O=C1C2=Nc3ccccc3CN2C(=S)N1c1ccc([N+](=O)[O-])cc1 | CCRF-CEM | cell growth or viability, resazurin | 72 h |  | 27800 nM |
| CC[C@H](C)[C@H](NC(=O)[C@H](CCCCN)NC(=O)[C@H]1CCC[C@@H]1NC(=O)[C@H](CC(C)C)NC(=O)CN)C(=O)N[C@@H](C)CC(=O)N[C@@H](CCCCN)C(=O)N[C@@H](CCCCN)C(=O)N[C@H]1CCC[C@@H]1C(=O)N[C@H](C(=O)N[C@@H](CCCCN)C(=O)N[C@@H](C)CC(=O)N[C@@H](Cc1ccccc1)C(N)=O)[C@@H](C)CC | HUVEC | cytotoxicity |  |  | 461 µg/mL |
| C[C@H](c1cccc2ccccc12)N1C(=O)C2=Nc3ccccc3CN2C1=S | CCRF-CEM | cell growth or viability, resazurin | 72 h |  | 518 nM |
| C1=[N+]2CCCC[N+]3=Cc4ccc5[n]4[Au-]23[n]2c1ccc2-c1nc2ccccc2nc1-5.F[P-](F)(F)(F)(F)F | SF-539 |  | NCI60 five-dose screen |  | 3700 nM |
| Cc1ccc2c(Cl)cc(Cl)c([O-])c2n1.Cc1ccc2c(Cl)cc(Cl)c([O-])c2n1.Cc1ccnc(-c2cc(C)ccn2)c1.[Co+2] | HL-7702 normal hepatocytes | cell viability, MTT | 48 h |  | 80100 ± 1060 nM |
| CC(C)c1ccc(N(C)c2ccc3c(c2)OCC[C@H]3CNc2cnccc2C(=O)O)cc1 | MDA-MB-453 | cell growth or viability, ATP luminescence | 7 days |  | 10.4 nM |
| Cn1ncc(-c2ccc3c(=O)[nH]nc(CN)c3c2)c1-c1c(F)c(Cl)cc(OC2CC2)c1C#N | H4 | cell viability | 120 h, relative IC50 |  | 80 nM |
| C=CC(=O)N1CCCC(n2c(=O)c3ncccc3n(Cc3ccc(Oc4ccccc4)cc3)c2=O)C1 (stereo not drawn) | L-428 | cell growth or viability, MTT | 72 h |  | 20000 nM |
| CCN(CC)CCCC(C)Nc1c2ccc(Cl)cc2nc2ccc(OC)cc12 (stereo not drawn) | ARPE-19 | cytotoxicity, CCK-8 | 48 h |  | > 100000 nM |
| O=C(CCCCCONC(=O)c1nc(-c2ccc(Br)cc2)cs1)NO | neonatal foreskin fibroblasts | cytotoxicity, sulforhodamine B | 72 h |  | 1110 nM |
| CNS(=O)(=O)Nc1nccc(Cc2c(C)c3ccc(Oc4ncccc4F)cc3oc2=O)c1F | A2058 | cell viability | 7 days |  | 15.3 nM |

| SMILES | cell line | assay | setting | scale | IC50 |
| --- | --- | --- | --- | --- | --- |
| Cc1ccc([N+](=O)[O-])cc1S(=O)(=O)N(C)/N=C/c1cnc2ccc(Br)cn12 | IGROV-1 | cell viability, MTS |  |  | 251 nM |
| O=c1c2ccccc2[se]n1CCCCCCn1[se]c2ccccc2c1=O | H22 | cell growth or viability | 5 days |  | 1510 nM |
| O=C1/C(=N\c2ccc(Cl)cc2Br)c2ccccc2N1C(=O)c1ccccc1Br | L02 | cell growth or viability, MTT | 48 h |  | > 100000 nM |
| O=[N+]([O-])c1ccc(C=NNC(Nc2ccccc2)=[S+][Au-][Cl])o1 | IMR-90 | cell growth or viability, resazurin |  |  | 64100 nM |
| CC[C@H](C)[C@H](NC(=O)[C@H](CCCCN)NC(=O)[C@H](CCCCN)NC(=O)[C@@H](NC(=O)[C@@H](NC(=O)[C@H](CC(=O)O)NC(=O)[C@H](Cc1ccccc1)NC(=O)[C@H](CC(C)C)NC(=O)CN)[C@@H](C)CC)[C@@H](C)CC)C(=O)N[C@@H](C)C(=O)N[C@@H](CCC(=O)O)C(=O)N[C@@H](CO)C(=O)N[C@@H](Cc1ccccc1)C(N)=O | HUVEC | cytotoxicity |  |  | 64.6 µg/mL |
| COc1ccccc1/C=C1\C(=O)N(C)c2ccc(N(C)c3nc(C)nc4ccccc34)cc21 | H22 | cell growth or viability, MTT |  |  | 2920 nM |
| COc1ccc(CC[C@H]2OC(=O)[C@@H]3CCCCN3C(=O)C(=O)C(C)(C)COC(=O)C=CCCN(C)C(=O)[C@H](CC3CCCCC3)NC(=O)[C@@H](Cc3ccccc3)N(C)C(=O)[C@@H]3CCCN3C(=O)[C@H](CC(C)C)N(C)C(=O)CCC(=O)Nc3cccc2c3)cc1OC | HUVEC | thymidine uptake, inhibitor |  |  | > 20000 nM |
| CCn1nc(Cl)c2c1-c1cnc(N)c(c1)O[C@H](C)c1cc(F)ccc1-c1nn(C)cc1C2 | NB1 (ALK amplification, exon 2-3 deletion) | cell viability |  |  | 1.99 nM |
| COc1ccc(CC[C@H]2OC(=O)[C@@H]3CCCCN3C(=O)C(=O)C(C)(C)COC(=O)C=CCCN(C)C(=O)[C@H](Cc3ccc(F)cc3)NC(=O)[C@@H](Cc3ccccc3)N(C)C(=O)[C@@H]3CCCN3C(=O)[C@H](CC(C)C)N(C)C(=O)CCC(=O)Nc3cccc2c3)cc1OC | HUVEC | thymidine uptake, inhibitor |  |  | > 20000 nM |
| COC(=O)N1c2ccc3c(nc(Cc4ccccc4)n3[C@@H]3CCC[C@@H](C(=O)O)C3)c2CC[C@@H]1C | JIMT-1 | cell growth or viability, ATP luminescence | 10 days |  | 3290 nM |
| COc1ccc(CC[C@H]2OC(=O)[C@@H]3CCCCN3C(=O)C(=O)C(C)(C)COC(=O)C=CCCN(C)C(=O)[C@H](CC(C)C)N(C)C(=O)[C@H]3CCCN3C(=O)[C@H](Cc3ccccc3)N(C)C(=O)[C@H](Cc3ccc(O)cc3)NC(=O)CCC(=O)Nc3cccc2c3)cc1OC | HUVEC | thymidine uptake, inhibitor |  |  | > 20000 nM |
| Clc1ccnc2c1ccc1c(Cl)ccnc12.[Co+2].[O-]c1c(I)cc(I)c2cccnc12.[O-]c1c(I)cc(I)c2cccnc12 | HL-7702 normal hepatocytes | cell viability, MTT | 48 h |  | 64600 ± 790 nM |
| COc1ccc(CC[C@H]2OC(=O)[C@@H]3CCCCN3C(=O)C(=O)C(C)(C)COC(=O)C=CCCN(C)C(=O)[C@H](C(C)C)NC(=O)[C@@H](Cc3ccccc3)N(C)C(=O)[C@@H]3CCCN3C(=O)[C@H](CC(C)C)N(C)C(=O)CCC(=O)Nc3cccc2c3)cc1OC | HUVEC | thymidine uptake, inhibitor |  |  | 1200 ± 300 nM |
| O=C1/C(=N\c2ccc(Cl)cc2Br)c2ccccc2N1Cc1ccccc1 (mixture of isomers) | L02 | cell growth or viability, MTT | 48 h |  | 19400 nM |
| C=CC(=O)N1C[C@H](C)N(c2nc(OC[C@@]34CCCN3C[C@H](F)C4)nc3c(F)c(-c4ccc(F)c5sc(N)c(C#N)c45)c(C(F)(F)F)cc23)C[C@H]1C | Ba/F3 expressing KRAS G12C/Q61H | cell viability | 72 h |  | 0.2 nM |
| COc1ccc2c(c1)CN1C(=S)N([C@H](C)c3ccccc3)C(=O)C1=N2 | CCRF-CEM | resazurin | 72 h |  | 1530 ± 150 nM |
| CC(C)OC(=O)[C@H](CO)NCc1cc(Cl)c(OCc2cccc(-c3ccccc3)c2Br)cc1OCc1cccnc1 | human Hepatocyte | cell growth or viability, MTT |  |  | > 10000 nM |
| COc1ccc(CC[C@H]2OC(=O)[C@@H]3CCCCN3C(=O)C(=O)C(C)(C)COC(=O)C=CCCN(C)C(=O)[C@H](Cc3ccccc3)NC(=O)[C@@H](Cc3ccccc3)N(C)C(=O)[C@H]3CCCN3C(=O)[C@H](CC(C)C)N(C)C(=O)CCC(=O)Nc3cccc2c3)cc1OC | HUVEC | thymidine uptake, inhibitor |  |  | > 20000 nM |
| CCCc1cc2cc(-n3cc(C)c4c3CC(C)(C)CC4=O)cc(N3CCC(O)CC3)c2c(=O)[nH]1 | SK-OV-3 | cell growth or viability, MTS |  |  | 5650 nM |
| CCOc1cncc(-c2ccc(NC(=O)C3(c4ccnc(NS(=O)(=O)C5CC5)n4)CCOCC3)nc2)n1 | PL-21 | cell proliferation, CellTiter-Glo | 72 h |  | 117 nM |
| CC(C)CCC[C@@H](C)[C@H]1CC[C@H]2[C@@H]3CC=C4C[C@@H](OC(=O)NCCCN(C)CCCNC(=O)N(CCO)CCNc5ccc(NCCNCCO)c6c5C(=O)c5c(O)ccc(O)c5C6=O)CC[C@]4(C)[C@H]3CC[C@]12C | ARPE-19 | cytotoxicity, CCK-8 | 48 h |  | 119 ± 78 nM |

Excerpt of the above:
| SMILES | cell line | assay | setting | scale | IC50 |
| --- | --- | --- | --- | --- | --- |
| Cc1cnc2nc1Nc1cccc(c1)COC/C=C/COCc1cc(ccc1OCCN1CCCCC1)N2 | HEL 92.1.7 JAK2 V617F | cell growth, CCK-8 |  |  | 1450 nM |
| CC(C)C[C@H](NC(=O)CN)C(=O)N[C@H]1CCC[C@@H]1C(=O)N[C@@H](CCCCN)C(=O)N[C@@H](CC(C)C)C(=O)N[C@@H](C)CC(=O)N[C@@H](CCCCN)C(=O)N[C@@H](CCCCN)C(=O)N[C@H]1CCC[C@@H]1C(=O)N[C@@H](CC(C)C)C(=O)N[C@@H](CCCCN)C(=O)N[C@@H](CO)CC(=O)N[C@@H](Cc1ccccc1)C(N)=O | HUVEC | cytotoxicity |  |  | 306 µg/mL |
| COc1ccc(CC[C@H]2OC(=O)[C@@H]3CCCCN3C(=O)C(=O)C(C)(C)COC(=O)C=CCCN(C)C(=O)[C@H](CC(C)C)N(C)C(=O)[C@H]3CCCN3C(=O)[C@H](C)N(C)C(=O)[C@H](Cc3ccccc3)NC(=O)CCC(=O)Nc3cccc2c3)cc1OC | HUVEC | thymidine uptake, inhibitor |  |  | > 20000 nM |
| CN1CCC(N[C@@H]2CCc3[nH]c4c(C(N)=O)ccc(-c5ccccc5Cl)c4c3C2)CC1 | HGC-27 | cell growth or viability |  |  | 2.18 nM |
| O=C1C2=Nc3ccccc3CN2C(=S)N1c1ccc([N+](=O)[O-])cc1 | CCRF-CEM | cell growth or viability, resazurin | 72 h |  | 27800 nM |
| CC[C@H](C)[C@H](NC(=O)[C@H](CCCCN)NC(=O)[C@H]1CCC[C@@H]1NC(=O)[C@H](CC(C)C)NC(=O)CN)C(=O)N[C@@H](C)CC(=O)N[C@@H](CCCCN)C(=O)N[C@@H](CCCCN)C(=O)N[C@H]1CCC[C@@H]1C(=O)N[C@H](C(=O)N[C@@H](CCCCN)C(=O)N[C@@H](C)CC(=O)N[C@@H](Cc1ccccc1)C(N)=O)[C@@H](C)CC | HUVEC | cytotoxicity |  |  | 461 µg/mL |
